Measurements pooled from the literature.
Compare with care: the assays were run in different laboratories. Numbers after ± are the reported error.
CNR2: Cannabinoid receptor 2 (CNR2, Homo sapiens, UniProt P34972)
Sequence of UniProt P34972 (whole entry, looked up): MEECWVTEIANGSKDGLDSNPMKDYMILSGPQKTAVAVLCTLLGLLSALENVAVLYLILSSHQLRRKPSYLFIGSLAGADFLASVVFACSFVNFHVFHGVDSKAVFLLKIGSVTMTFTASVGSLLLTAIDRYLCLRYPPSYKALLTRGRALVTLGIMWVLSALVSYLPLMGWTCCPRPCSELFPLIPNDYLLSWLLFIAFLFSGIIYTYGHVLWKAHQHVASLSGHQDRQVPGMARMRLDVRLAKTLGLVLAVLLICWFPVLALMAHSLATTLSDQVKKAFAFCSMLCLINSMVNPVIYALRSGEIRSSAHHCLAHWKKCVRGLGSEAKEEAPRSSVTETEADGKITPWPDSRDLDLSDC
Gabrg2/Gabra2 with β3 subunit: Gabrg2/Gabra2, with β3 subunit (Rattus norvegicus, UniProt P18508+P23576)
Sequence of UniProt P23576 (whole entry, looked up): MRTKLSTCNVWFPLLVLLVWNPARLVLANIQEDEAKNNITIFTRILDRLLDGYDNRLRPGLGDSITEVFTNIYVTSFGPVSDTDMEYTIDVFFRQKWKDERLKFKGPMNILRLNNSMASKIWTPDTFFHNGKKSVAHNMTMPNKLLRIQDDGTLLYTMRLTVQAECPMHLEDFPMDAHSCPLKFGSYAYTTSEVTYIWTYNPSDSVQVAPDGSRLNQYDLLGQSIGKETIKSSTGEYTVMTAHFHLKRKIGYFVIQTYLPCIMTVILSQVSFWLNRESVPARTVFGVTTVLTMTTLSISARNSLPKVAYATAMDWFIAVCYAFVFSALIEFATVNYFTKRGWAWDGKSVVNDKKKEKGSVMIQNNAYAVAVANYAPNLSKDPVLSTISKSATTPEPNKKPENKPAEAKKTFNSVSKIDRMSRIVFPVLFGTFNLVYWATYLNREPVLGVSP
Sequence of UniProt P18508 (whole entry, looked up): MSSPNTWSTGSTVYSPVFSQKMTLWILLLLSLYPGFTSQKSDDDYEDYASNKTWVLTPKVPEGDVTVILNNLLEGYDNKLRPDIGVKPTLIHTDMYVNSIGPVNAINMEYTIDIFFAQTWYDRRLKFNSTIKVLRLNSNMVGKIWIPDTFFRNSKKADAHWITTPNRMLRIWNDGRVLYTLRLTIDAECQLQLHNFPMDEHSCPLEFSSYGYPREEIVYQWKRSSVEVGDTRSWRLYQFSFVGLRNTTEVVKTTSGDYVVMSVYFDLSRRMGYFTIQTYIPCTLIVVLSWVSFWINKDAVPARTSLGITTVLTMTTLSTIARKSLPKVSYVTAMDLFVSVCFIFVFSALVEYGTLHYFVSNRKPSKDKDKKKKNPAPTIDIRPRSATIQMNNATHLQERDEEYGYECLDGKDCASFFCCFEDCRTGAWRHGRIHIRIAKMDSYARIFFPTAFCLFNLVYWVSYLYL
DRD1: D(1A) dopamine receptor (DRD1, Homo sapiens, UniProt P21728)
Sequence of UniProt P21728 (whole entry, looked up): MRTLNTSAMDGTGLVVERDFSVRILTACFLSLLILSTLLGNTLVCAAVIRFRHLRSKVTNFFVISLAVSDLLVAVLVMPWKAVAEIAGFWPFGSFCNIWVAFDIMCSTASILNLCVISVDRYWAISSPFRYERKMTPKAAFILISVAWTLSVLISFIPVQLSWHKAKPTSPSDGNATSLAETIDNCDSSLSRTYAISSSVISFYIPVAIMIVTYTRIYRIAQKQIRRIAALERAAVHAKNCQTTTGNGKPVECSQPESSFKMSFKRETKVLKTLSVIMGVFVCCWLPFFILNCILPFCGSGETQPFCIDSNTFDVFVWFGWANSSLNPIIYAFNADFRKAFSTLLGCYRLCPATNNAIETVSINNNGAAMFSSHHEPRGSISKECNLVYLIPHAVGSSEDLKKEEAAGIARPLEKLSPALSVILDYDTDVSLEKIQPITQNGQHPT
Sequence of UniProt P33535 (whole entry, looked up): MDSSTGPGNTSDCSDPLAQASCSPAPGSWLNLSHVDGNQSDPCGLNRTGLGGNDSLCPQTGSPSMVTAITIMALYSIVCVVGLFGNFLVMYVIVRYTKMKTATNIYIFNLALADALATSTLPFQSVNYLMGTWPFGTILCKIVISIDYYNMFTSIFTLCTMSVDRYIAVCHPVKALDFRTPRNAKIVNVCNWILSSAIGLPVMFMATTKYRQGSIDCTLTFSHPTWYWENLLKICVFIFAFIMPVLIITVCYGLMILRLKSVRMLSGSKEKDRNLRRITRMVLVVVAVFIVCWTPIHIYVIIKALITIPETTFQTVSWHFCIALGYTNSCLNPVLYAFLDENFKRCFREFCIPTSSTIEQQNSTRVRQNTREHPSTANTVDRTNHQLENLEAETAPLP
Sequence of UniProt P42866 (whole entry, looked up): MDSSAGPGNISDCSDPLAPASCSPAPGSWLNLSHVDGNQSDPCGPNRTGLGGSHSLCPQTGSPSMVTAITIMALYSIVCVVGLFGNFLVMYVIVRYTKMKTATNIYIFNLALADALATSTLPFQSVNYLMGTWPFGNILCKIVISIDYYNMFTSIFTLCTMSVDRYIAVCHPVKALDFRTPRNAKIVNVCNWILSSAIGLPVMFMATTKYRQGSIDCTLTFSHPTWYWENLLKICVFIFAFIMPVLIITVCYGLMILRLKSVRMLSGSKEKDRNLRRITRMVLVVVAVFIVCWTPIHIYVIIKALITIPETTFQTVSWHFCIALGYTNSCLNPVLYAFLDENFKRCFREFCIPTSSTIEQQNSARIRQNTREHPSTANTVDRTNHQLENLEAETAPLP
Sequence of UniProt P25084 (whole entry, looked up): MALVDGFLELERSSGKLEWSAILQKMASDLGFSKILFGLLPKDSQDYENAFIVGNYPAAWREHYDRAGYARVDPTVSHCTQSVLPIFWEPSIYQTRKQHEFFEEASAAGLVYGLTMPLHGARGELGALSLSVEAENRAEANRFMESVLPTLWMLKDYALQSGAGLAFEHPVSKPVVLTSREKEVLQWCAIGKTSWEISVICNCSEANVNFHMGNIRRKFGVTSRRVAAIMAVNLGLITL
Sequence of UniProt P35372 (whole entry, looked up): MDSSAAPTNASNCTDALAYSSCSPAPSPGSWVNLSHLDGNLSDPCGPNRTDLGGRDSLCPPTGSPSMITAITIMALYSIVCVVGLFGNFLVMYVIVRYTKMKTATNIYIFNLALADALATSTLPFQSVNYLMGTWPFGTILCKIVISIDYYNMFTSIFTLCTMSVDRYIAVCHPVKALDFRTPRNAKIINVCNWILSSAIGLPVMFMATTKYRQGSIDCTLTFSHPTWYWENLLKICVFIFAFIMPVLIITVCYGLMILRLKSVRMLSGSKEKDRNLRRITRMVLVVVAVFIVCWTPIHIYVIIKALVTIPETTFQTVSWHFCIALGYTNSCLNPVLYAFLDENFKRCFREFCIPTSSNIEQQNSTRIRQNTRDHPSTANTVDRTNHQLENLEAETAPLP
Sequence of UniProt P41595 (whole entry, looked up): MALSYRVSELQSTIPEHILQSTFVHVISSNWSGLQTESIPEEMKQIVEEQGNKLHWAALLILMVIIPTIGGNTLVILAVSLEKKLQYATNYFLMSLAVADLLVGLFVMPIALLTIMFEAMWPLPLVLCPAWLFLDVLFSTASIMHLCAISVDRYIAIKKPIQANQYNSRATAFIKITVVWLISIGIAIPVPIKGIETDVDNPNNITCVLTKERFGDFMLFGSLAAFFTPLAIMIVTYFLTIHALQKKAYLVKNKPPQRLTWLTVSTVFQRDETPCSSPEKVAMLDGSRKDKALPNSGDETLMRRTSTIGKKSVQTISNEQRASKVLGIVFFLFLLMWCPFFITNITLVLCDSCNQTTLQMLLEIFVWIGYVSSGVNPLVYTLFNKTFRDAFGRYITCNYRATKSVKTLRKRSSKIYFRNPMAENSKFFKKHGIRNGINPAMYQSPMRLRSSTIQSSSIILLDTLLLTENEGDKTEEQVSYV

With NC(=O)[C@@H]1CSCSC[C@@H](NC(=O)[C@@H](N)Cc2ccc(O)cc2)C(=O)N[C@@H](Cc2ccc3ccccc3c2)C(=O)N[C@@H](Cc2ccccc2)C(=O)N1 the Emax was 31 to 34% (Oprm1 (Rattus norvegicus, UniProt P33535); agonist; C6 cells, membranes; baseline: 10 µM DAMGO).
CC(C)(NC(=O)c1nn(CCCCC(F)(F)F)c2ccccc12)c1cccc(C(N)=O)c1 has an Emax of 40 ± 1% (CNR2; calcium mobilization, agonist; CHO-K1 expressing Gαq16; baseline: CP55,940 maximum).
COc1cccc2c1C(=O)c1c(O)c3c(c(O)c1C2=O)C[C@@](O)(C(=O)CO)C[C@@H]3O[C@H]1C[C@H](NC(=O)[C@@H]2CCCN2C(=O)CNC(=O)[C@H](CC(C)C)NC(=O)[C@H](C)NC(=O)CP(=O)(O)O)[C@H](O)[C@H](C)O1 gave a Cmax of 530 µM (mouse, E0771 tumour-bearing, kidney; intravenous, 92 µmol/kg).
For NC(=O)[C@@H]1CSSC[C@@H](NC(=O)[C@@H](N)Cc2ccc(O)cc2)C(=O)N[C@@H](Cc2cccc3ccccc23)C(=O)N[C@@H](Cc2ccccc2)C(=O)N1, the Emax was 31 to 34% (Oprm1 (Rattus norvegicus, UniProt P33535); agonist; C6 cells, membranes; baseline: 10 µM DAMGO).
With C[C@H]1CNCCc2ccc(Cl)cc21 the CL/F was 266 mL/min/kg (male Sprague-Dawley rat, plasma; subcutaneous, 1 mg/kg, single dose).
With CN(C(=O)c1ccc2c(c1)OCC2(C)Cc1ccccc1)C(C)(C)C (stereo not shown) the Emax was 91% (CNR2; GTPγS binding, agonist, radiometric).
For Cc1ncc2n1-c1ccc(Cl)cc1C(c1ccccc1F)=NC2, the terminal half-life was 8.72 h (human CYP3A5*1/*3 and *1/*6, serum; geometric mean, with: ketoconazole 400 mg).
N#Cc1ccc(-c2ccc(-c3cccs3)s2)cc1F gave an inhibition of 93% (Salmonella enterica; sodium azide mutagenicity; TA1535; 10 µM, 48 h, with: sodium azide 2 µg/plate co-exposure).
C[C@H](NC(=O)c1nn(Cc2ccc(F)cc2)c2ccccc12)c1cccc(C(N)=O)c1 gave an Emax of 48% (CNR2; calcium mobilization, agonist; CHO-K1 expressing Gαq16; baseline: CP55,940 maximum).
For CN(C)C(=O)C(CCNCCCCN1CCN(c2cccc(Cl)c2Cl)CC1)(c1ccccc1)c1ccccc1, the Emax was 50% (Oprm1 (Mus musculus, UniProt P42866); agonist).
CC1(Cc2ccc(Cl)cc2)COc2cc(C(=O)N3CCCCC3)ccc21 (stereo not shown) gave an Emax of 102% (CNR2; GTPγS binding, agonist, radiometric).
The tissue uptake of N=C(N)NCCC[C@@H]1NC(=O)[C@H](CCCCNC(=O)CNC(=O)CNC(=O)CNC(=O)CC[C@H](NC(=O)CCOCCOCCOCCOCCNC(=O)c2ccc(NN)nc2)C(=O)NCC(=O)NCC(=O)NCC(=O)NCCCC[C@@H]2NC(=O)[C@@H](Cc3ccccc3)NC(=O)[C@H](CC(=O)O)NC(=O)CNC(=O)[C@H](CCCNC(=N)N)NC2=O)NC(=O)[C@@H](Cc2ccccc2)NC(=O)[C@H](CC(=O)O)NC(=O)CNC1=O [technetium-99m labelled] is reported as 1.61 ± 0.39 %ID/g (γ-counting; female athymic nude mice, U-87 MG xenograft, heart; intravenous, 1 h).
With NC(=O)C1(NC(=O)c2nn(Cc3ccc(F)cc3)c3ccccc23)CCCC1 the Emax was 71 ± 7% (CNR2; calcium mobilization, agonist; CHO-K1 expressing Gαq16; baseline: CP55,940 maximum).
CC(C)(C)OC(=O)c1ncn2c1[C@@H]1CCCN1C(=O)c1c(Br)cccc1-2 has an Emax of 129 ± 10% (Gabrg2/Gabra2 with β3 subunit; GABA-induced chloride current, two-electrode voltage clamp; Xenopus oocytes; with: GABA at EC3).
CN[C@@](C)(C[18F])C(=O)O has a tracer uptake of 1.9 %ID/g (MDA-MB-468 tumour model; host not given, bone; 2 h, tumour-bearing).
CC(C)(NC(=O)c1nn(CCCCCF)c2ccccc12)c1cccc(C(N)=O)c1 gave an Emax of 35 ± 5% (CNR2; calcium mobilization, agonist; CHO-K1 expressing Gαq16; baseline: CP55,940 maximum).
With CCC/C=C/CC1(C)COc2cc(C(=O)NC3CCCCC3)ccc21 (stereo not shown) the Emax was 105% (CNR2; GTPγS binding, agonist, radiometric).
CCCCCCCCCC(=O)CC(=O)N[C@H]1CCOC1=O has an Emax of 98% (lasR (Pseudomonas aeruginosa, UniProt P25084); reporter gene, agonist; Escherichia coli lasI-lacZ reporter; baseline: OdDHL).
COc1cccc2c1C(=O)c1c(O)c3c(c(O)c1C2=O)C[C@@](O)(C(=O)CO)C[C@@H]3O[C@H]1C[C@H](NC(=O)[C@H](CC(C)C)NC(=O)[C@H](C)NC(=O)[C@H](CC(C)C)NC(=O)CCNC(=O)CCC(=O)O)[C@H](O)[C@H](C)O1 has a Cmax of 56.5 µM (mouse, E0771 tumour-bearing, tumor; intravenous, 92 µmol/kg).
CNC(C)Cc1ccc2c(c1)OCO2 (racemic) gave a mood rating of 1.3 (visual analog scale, item: Confident; human; oral, 0.75 mg/kg, mean over session, unit not given; baseline: pre-dose baseline).
CCOC(=O)c1ncn2c1CN(C)C(=O)c1cc(F)ccc1-2 gave an Emax of 133 ± 7% (Gabrg2/Gabra2 with β3 subunit; GABA-induced chloride current, two-electrode voltage clamp; Xenopus oocytes; with: GABA at EC3).
For CC1(Cc2ccncc2)COc2cc(C(=O)N3CCCCC3)ccc21 (stereo not shown), the Emax was 62.5% (CNR2; GTPγS binding, agonist, radiometric).
CN1Cc2ccccc2[C@@H]2c3cccc4[nH]cc(c34)C[C@H]21 has an Emax of 85% (DRD1; cAMP, agonist).
COc1ccc(Cl)c(Cl)c1C1CC1CN (single isomer, unassigned; (-)) has an Emax of 62% (HTR2B (Homo sapiens, UniProt P41595); calcium signal, agonist, fluorescence; HEK293).
NC(=O)c1cccc(C2(NC(=O)c3nn(Cc4ccc(F)cc4)c4ccccc34)CC2)c1 has an Emax of 44 ± 5% (CNR2; calcium mobilization, agonist; CHO-K1 expressing Gαq16; baseline: CP55,940 maximum).
The Emax of Cc1ccc2c(c1)[C@H]1c3cc(O)c(O)cc3CC[C@@H]1NC2 is reported as 100% (DRD1; cAMP, agonist).
CC(C)c1ccc2c(c1)CC[C@H]1[C@](C)(CN)CCC[C@]21C gave an IC50 of 8.95 ± 0.57 µM (HFK normal keratinocytes; cell viability, MTS; 48 h).
NC(=O)c1cc(N2C3CCC2CN(CCCc2ccccc2)C3)ccc1F has an Emax of 10.7% (OPRM1 (Homo sapiens, UniProt P35372); agonist).
